Measured values of several laboratories.
Several values in a cell are separate wells, animals, samples, runs or records. ± gives the spread as reported.

`CC(OS(=O)(=O)O)c1nc(-c2ccc3c(c2)CCC3NC(=O)c2cnn(C)c2)no1` (stereo not drawn) — result for “AUC(0-t) share of total radioactivity”: 1.31% and ~1.31% (human, pooled plasma; oral, 20 mg, 2 to 264 h; relative to: total radioactivity AUC).
`CCc1cc(Nc2nc(-c3ccc(-n4cnc(C)c4)c(F)c3)cs2)c(C)cc1C` gave an AUC(0-t) of 2730 ng·h/mL (human, plasma; oral, 100 mg once daily, day 14, geometric mean).
`O=C(CCc1ccc(CNC(C(=O)OC2CCCC2)C2CCCCC2)cn1)NO` (stereo not drawn) has an AUC(0-t) of 39.4 ng·h/mL (human, plasma; oral, 20 mg single dose, geometric mean).
`[2H]C([2H])([2H])NC(=O)c1ccc(N2C(=S)N(c3ccc(C#N)c(C(F)(F)F)c3)C(=O)C2(C)C)cc1F` has an AUC(0-t) of 749000 ± 96900 ng·h/mL (healthy male human, plasma; oral, 160 mg, fasted, single dose).
For `CC(C)(O)c1ncc([S@](N)(=O)=NC(=O)Nc2c3c(cc4c2CCC4)CCC3)s1`, “AUC(0-t) fold change” read 1.49 fold (healthy human subjects, plasma; oral, 100 mg; relative to: fed over fasted).
`Cn1c(=O)oc2ccc(-c3ccc(CC(C#N)NC(=O)C4CNCCCO4)c(F)c3)cc21` (stereo not drawn) has an AUC(0-t) of 5370 ng·h/mL (human volunteers, plasma; 60 mg single dose, fasted, geometric mean).
`CC(C)[C@H](NC(=O)CNC(=O)[C@H](CCC(N)=O)NC(=O)[C@H](C)N)C(=O)O` — result for “AUC(0-t) increase over dose-proportional”: 123% (human; up to 30 mg/kg three times daily, 3 days).
For `CC(O)c1nc(-c2ccc3c(c2)CC[C@H]3NC(=O)c2cnn(C)c2)no1` (stereo partly drawn), “AUC(0-t) share of total radioactivity” read about 46.9% (human, pooled plasma; oral, 20 mg, 2 to 264 h; relative to: total radioactivity AUC).
For `CN1CCC[C@]1(C)/C=C/S(=O)(=O)NC(=O)Nc1c2c(cc3c1CCC3)CCC2`, the AUC(0-t) was 216000 ng·h/mL (human, plasma; oral, 100 mg twice daily, day 14, multiple ascending dose).

Repeated from above:
`CCc1cc(Nc2nc(-c3ccc(-n4cnc(C)c4)c(F)c3)cs2)c(C)cc1C` gave an AUC(0-t) of 2730 ng·h/mL (human, plasma; oral, 100 mg once daily, day 14, geometric mean).
